{"data": "Assay results from different studies", "note": "Each line is one published result; not all experiments were run side by side. “And” joins repeats or separate records; there may be more than shown. ± marks the error that the study gave.", "chain of UniProt Q13547 (whole entry, looked up)": "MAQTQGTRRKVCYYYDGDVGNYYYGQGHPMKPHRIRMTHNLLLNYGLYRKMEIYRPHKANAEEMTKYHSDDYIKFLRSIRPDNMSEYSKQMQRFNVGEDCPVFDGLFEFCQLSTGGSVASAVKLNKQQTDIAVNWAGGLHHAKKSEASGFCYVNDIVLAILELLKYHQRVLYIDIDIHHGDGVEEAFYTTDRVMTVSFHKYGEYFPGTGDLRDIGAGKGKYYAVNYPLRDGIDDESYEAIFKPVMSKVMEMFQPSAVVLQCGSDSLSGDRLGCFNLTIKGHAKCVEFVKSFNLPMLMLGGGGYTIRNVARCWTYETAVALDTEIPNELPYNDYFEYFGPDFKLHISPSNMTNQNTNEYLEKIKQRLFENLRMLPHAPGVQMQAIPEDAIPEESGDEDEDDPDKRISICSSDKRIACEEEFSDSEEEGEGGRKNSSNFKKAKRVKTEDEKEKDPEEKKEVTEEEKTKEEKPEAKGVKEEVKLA", "chain of UniProt P06276 (whole entry, looked up)": "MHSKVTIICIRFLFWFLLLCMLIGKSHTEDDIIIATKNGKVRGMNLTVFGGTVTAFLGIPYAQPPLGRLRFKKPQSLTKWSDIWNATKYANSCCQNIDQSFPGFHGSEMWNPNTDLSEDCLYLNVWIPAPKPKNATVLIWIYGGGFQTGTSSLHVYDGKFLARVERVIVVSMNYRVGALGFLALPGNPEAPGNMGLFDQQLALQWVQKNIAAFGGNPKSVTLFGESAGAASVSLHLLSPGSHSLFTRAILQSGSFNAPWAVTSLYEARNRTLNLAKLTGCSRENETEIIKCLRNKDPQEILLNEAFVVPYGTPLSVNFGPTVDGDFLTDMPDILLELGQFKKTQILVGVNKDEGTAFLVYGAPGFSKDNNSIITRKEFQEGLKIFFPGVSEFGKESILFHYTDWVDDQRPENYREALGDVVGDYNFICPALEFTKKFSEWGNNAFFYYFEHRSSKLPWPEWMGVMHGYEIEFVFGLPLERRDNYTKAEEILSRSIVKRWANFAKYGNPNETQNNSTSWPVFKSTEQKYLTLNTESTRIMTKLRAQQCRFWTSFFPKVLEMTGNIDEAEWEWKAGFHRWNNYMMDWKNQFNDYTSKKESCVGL", "chain of UniProt P06873 (whole entry, looked up)": "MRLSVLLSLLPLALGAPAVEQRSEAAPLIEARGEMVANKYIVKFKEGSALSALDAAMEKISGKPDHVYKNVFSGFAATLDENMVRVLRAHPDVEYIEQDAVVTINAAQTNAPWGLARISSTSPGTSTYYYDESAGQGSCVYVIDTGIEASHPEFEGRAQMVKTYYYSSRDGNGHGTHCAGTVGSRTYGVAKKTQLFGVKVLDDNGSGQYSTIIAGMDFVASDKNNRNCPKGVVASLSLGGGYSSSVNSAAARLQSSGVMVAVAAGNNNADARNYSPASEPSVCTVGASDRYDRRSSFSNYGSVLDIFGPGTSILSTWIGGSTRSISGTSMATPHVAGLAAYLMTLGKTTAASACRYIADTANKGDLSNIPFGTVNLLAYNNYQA", "chain of UniProt P08183 (whole entry, looked up)": "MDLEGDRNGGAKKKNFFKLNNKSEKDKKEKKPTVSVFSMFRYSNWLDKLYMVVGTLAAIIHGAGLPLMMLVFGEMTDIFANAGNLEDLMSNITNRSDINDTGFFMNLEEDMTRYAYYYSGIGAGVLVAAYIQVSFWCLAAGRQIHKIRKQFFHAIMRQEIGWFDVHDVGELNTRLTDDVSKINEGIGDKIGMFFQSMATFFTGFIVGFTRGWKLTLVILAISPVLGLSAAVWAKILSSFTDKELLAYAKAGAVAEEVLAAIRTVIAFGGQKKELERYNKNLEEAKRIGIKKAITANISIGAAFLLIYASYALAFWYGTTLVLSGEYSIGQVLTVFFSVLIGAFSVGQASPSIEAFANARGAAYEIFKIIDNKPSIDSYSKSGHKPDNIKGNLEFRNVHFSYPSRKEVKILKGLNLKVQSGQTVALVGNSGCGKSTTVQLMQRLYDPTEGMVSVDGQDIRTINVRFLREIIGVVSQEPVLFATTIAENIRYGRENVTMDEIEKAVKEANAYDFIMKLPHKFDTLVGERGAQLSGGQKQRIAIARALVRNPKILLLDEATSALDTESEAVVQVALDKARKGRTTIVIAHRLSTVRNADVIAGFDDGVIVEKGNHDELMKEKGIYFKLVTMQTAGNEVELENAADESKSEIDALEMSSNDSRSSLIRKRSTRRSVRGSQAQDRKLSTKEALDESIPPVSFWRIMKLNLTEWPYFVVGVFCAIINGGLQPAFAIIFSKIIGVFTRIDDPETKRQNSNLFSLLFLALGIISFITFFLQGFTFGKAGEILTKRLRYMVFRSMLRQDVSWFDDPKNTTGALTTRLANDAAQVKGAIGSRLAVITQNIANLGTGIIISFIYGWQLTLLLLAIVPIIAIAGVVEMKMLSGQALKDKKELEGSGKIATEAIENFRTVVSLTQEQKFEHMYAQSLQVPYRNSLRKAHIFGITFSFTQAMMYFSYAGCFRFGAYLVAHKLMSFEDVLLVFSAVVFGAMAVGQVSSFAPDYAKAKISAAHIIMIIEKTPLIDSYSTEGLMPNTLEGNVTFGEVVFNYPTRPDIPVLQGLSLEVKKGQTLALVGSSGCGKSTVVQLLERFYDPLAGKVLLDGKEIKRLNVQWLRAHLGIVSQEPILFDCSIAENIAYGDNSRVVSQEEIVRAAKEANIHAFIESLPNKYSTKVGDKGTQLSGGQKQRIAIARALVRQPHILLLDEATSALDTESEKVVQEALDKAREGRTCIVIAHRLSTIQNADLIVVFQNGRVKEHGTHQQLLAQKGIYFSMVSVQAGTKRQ"}
{"SMILES": "OC(CCN1CC=C(c2ccc(F)cc2)CC1)c1ccc(F)c2ccccc12 (centres unmarked)", "tested on": "Salmonella typhimurium", "assay": "SOS/umu test", "system": "TA1535/pSK1002, TGA medium", "conditions": "0.000488 mg/mL, 4 h, without S9", "endpoint": "survival", "result": "123%"}
{"SMILES": "Oc1ccc(C(c2ccc(O)cc2)(C(F)(F)F)C(F)(F)F)cc1", "tested on": "HepG2 spheroids, dissociated", "assay": "annexin V-FITC/PI flow cytometry", "conditions": "1 µM, 96 h", "endpoint": "early apoptotic cells", "result": "9.65 ± 1.25%"}
{"SMILES": "[Cl-].[Cl-].[Pt+2].[Ru+2].c1ccc(-c2nccnc2-c2ccccn2)nc1.c1cnc2c(c1)ccc1cccnc12.c1cnc2c(c1)ccc1cccnc12", "tested on": "Danio rerio", "system": "embryos", "conditions": "90 µM, 24 h", "endpoint": "survival rate", "result": "40 ± 4.1%"}
{"SMILES": "CC(C)CC(=O)OC[C@H]1O[C@@](C#N)(c2ccc3c(N)ncnn23)[C@H](O)[C@@H]1O", "tested on": "ABCB1 (Homo sapiens, UniProt P08183)", "system": "Caco-2", "conditions": "0.9 µM, together with: verapamil 100 µM", "endpoint": "Papp A to B", "result": "1.55 ×10⁻⁶ cm/s"}
{"SMILES": "OCc1ncc2n1-c1ccc(Cl)cc1C(c1ccccc1F)=NC2", "tested on": "CYP3A4 (human)", "system": "human, plasma", "conditions": "oral, 2 mg midazolam, together with: encorafenib at steady state", "how to read": "reference: Day -7 probe alone", "endpoint": "Cmax increase", "result": "25%"}
{"SMILES": "Nc1ncnc2c([C@@H]3N[C@H](CO)[C@@H](O)[C@H]3O)c[nH]c12", "tested on": "HeLa", "conditions": "50 µM", "endpoint": "cell number", "result": "5120 and 5320"}
{"SMILES": "O=c1ccc2ccccc2o1", "tested on": "HepG2", "assay": "cell membrane permeability", "conditions": "concentration not given, 24 h, necrosis and apoptosis panel", "endpoint": "chance response", "result": "0.07%"}
{"SMILES": "CCCC[C@H](NC(C)=O)C(=O)N[C@@H](CO)C(=O)N[C@H](C(=O)N1CCC[C@H]1C(=O)N[C@@H](C)C(=O)N[C@@H](CCCNC(=N)N)C(=O)N[C@@H](CCCNC(=N)N)C(=O)N[C@@H](CCCNC(=N)N)C(=O)N[C@@H](CC(C)C)C(=O)N[C@@H](CCCC)C(=O)N[C@@H](CCCNC(=N)N)C(=O)N[C@@H](CC(=O)O)C(=O)N[C@@H](Cc1ccccc1)C(=O)N[C@@H](CCCCN)C(=O)N[C@@H](CCCNC(=N)N)C(=O)N[C@@H](CC(C)C)C(=O)N[C@@H](CCC(N)=O)C(N)=O)[C@@H](C)O", "tested on": "Proteinase K (PROK, Engyodontium album, UniProt P06873)", "assay": "proteolytic stability, LC-MS", "conditions": "25 µM, 41.0 min, pH 7.4", "endpoint": "remaining intact peptide", "result": "22.7%"}
{"SMILES": "CC(C)C[C@H](NC(=O)[C@H](C)NC(=O)[C@@H](NC(=O)[C@H](CCCNC(=N)N)NC(=O)[C@H](CC(C)C)NC(=O)[C@H](Cc1c[nH]c2ccccc12)NC(=O)[C@@H]1CCCN1C(=O)[C@@H](N)CCCCN)C(C)C)C(=O)N[C@@H](CS)C(=O)N1CCC[C@H]1C(=O)NCC(=O)O", "tested on": "H9c2", "assay": "WST-1", "conditions": "128 µM, 24 h", "endpoint": "viability", "result": "103% and 110% and 104%"}
{"SMILES": "CN1CC[C@@H](c2c(O)cc(O)c3c(=O)cc(-c4ccc(C(F)(F)F)cc4Cl)oc23)[C@@H]1CO", "assay": "refers to: Constipation", "system": "B-cell malignancies", "conditions": "oral, 100 mg, intermittent dosing", "endpoint": "patients with adverse event", "result": "0%"}
{"SMILES": "CCN(CC)CCOCCOC(=O)C1(c2ccccc2)CCCC1", "tested on": "Plasmodium falciparum", "system": "HB3", "endpoint": "IC50", "result": "10 µM"}
{"SMILES": "C[C@H]1CN(c2n[nH]c3nc(N[C@H]4CC[C@H](NS(=O)(=O)CCC(F)(F)F)CC4)ncc23)CCO1", "tested on": "HDAC1 (Homo sapiens, UniProt Q13547)", "assay": "inhibitor, Kinobeads competition profiling", "conditions": "0.8 µM", "how to read": "reference: vehicle", "endpoint": "relative abundance", "result": 1.14}
{"SMILES": "CCCN(CCc1ccsc1)C1CCc2c(O)cccc2C1 (centres unmarked)", "tested on": "Cholinesterase (BCHE, Homo sapiens, UniProt P06276)", "assay": "inhibitor, fluorometric", "endpoint": "IC50", "result": "6.95 ± 2.68 µM"}
{"SMILES": "CC(C)(c1ccc(O)cc1)c1ccc(O)cc1", "tested on": "HepG2 spheroids, dissociated", "assay": "annexin V-FITC/PI flow cytometry", "conditions": "0.01 µM, 96 h", "endpoint": "late apoptotic cells", "result": "19 ± 3.18%"}
{"SMILES": "CC(C)[C@H](C(=O)O[C@H](C#N)c1cccc(Oc2ccccc2)c1)c1ccc(Cl)cc1", "tested on": "human cytosolic CES1", "assay": "IVIVE from expressed enzymes", "system": "human, 6 months old", "how to read": "reference: total hepatic CLint in vivo", "endpoint": "relative enzyme contribution", "result": "26.8%"}
{"SMILES": "COc1cc2c(cc1C(F)(F)F)N(C(=O)Nc1cc(F)cc(-c3cccnc3)c1)CC2", "tested on": "Plasmodium falciparum", "system": "GB4", "endpoint": "IC50", "result": "1.58 µM"}
{"SMILES": "CC(=O)N1CCC(C(=O)N2CCN3C(=O)c4cc(-c5ccccc5)ccc4NC(=O)C3C2)CC1 (centres unmarked)", "tested on": "Salmonella typhimurium", "system": "TA1537", "conditions": "1581 µg/plate, together with: rat liver S9", "endpoint": "revertants per plate", "result": 21.5}
{"SMILES": "CC1(C)[C@H](C=C(Cl)Cl)[C@H]1C(=O)OCc1cccc(Oc2ccccc2)c1", "tested on": "human microsomal CES2", "assay": "IVIVE from expressed enzymes", "system": "human, 6 months old, expressed human CES2", "conditions": "0.1 µM", "how to read": "reference: total hepatic CLint in vivo", "endpoint": "relative enzyme contribution", "result": "6.1%"}
{"SMILES": "C=C1CC[C@@]2(O)[C@H]3Cc4ccc(O)c5c4[C@@]2(CCN3CC2CC2)[C@H]1O5", "tested on": "H+/organic cation antiporter", "assay": "cell uptake", "system": "hCMEC/D3", "endpoint": "intrinsic clearance", "result": "8.6 µL/min/mg protein"}
{"SMILES": "COc1cc2c(Oc3ccc4[nH]c(C)cc4c3F)ccnc2cc1OCC1(N)CC1", "system": "paediatric recurrent refractory sarcoma", "conditions": "8 mg", "endpoint": "grade 3 Anorexia", "result": "0%"}
{"SMILES": "Cc1cc(C(=O)NC(C)(C)COc2cccc3c2C(N)=NS(=O)(=O)N3)cc(C)n1", "tested on": "Salmonella typhimurium", "assay": "Ames test, confirmatory", "system": "TA98", "conditions": "1000 µg/plate", "how to read": "reference: solvent control", "endpoint": "revertant ratio", "result": 0.9}
{"SMILES": "COc1cccc(-c2n[nH]c(SCc3ccccn3)n2)c1OC", "tested on": "Salmonella typhimurium", "assay": "Ames test, plate incorporation", "system": "TA1535", "conditions": "0.031 mg/plate, without S9", "endpoint": "revertant colonies per plate", "result": 15}
{"SMILES": "CO[C@H]1C[C@@H]2CC[C@@H](C)[C@@](O)(O2)C(=O)C(=O)N2CCCC[C@H]2C(=O)O[C@H]([C@H](C)C[C@@H]2CC[C@@H](OC(=O)NCCOCCOCCOCCOCCOCCOCCOCCOCCC(=O)N3CCc4cc(Cn5nc(-c6ccc7oc(N)nc7c6)c6c(N)ncnc65)ccc4C3)[C@H](OC)C2)C[C@@H](O)[C@H](C)/C=C(\\C)[C@@H](O)[C@@H](OC)C(=O)[C@H](C)C[C@H](C)/C=C/C=C/C=C/1C", "system": "patients with advanced solid tumours", "conditions": "intravenous, 12 mg weekly, grade 3 or higher", "endpoint": "headache incidence", "result": "0%"}
{"note": "A few entries again:"}
{"SMILES": "COc1cccc(-c2n[nH]c(SCc3ccccn3)n2)c1OC", "tested on": "Salmonella typhimurium", "assay": "Ames test, plate incorporation", "system": "TA1535", "conditions": "0.031 mg/plate, without S9", "endpoint": "revertant colonies per plate", "result": 15}
{"SMILES": "[Cl-].[Cl-].[Pt+2].[Ru+2].c1ccc(-c2nccnc2-c2ccccn2)nc1.c1cnc2c(c1)ccc1cccnc12.c1cnc2c(c1)ccc1cccnc12", "tested on": "Danio rerio", "system": "embryos", "conditions": "90 µM, 24 h", "endpoint": "survival rate", "result": "40 ± 4.1%"}
{"SMILES": "CCCN(CCc1ccsc1)C1CCc2c(O)cccc2C1 (centres unmarked)", "tested on": "Cholinesterase (BCHE, Homo sapiens, UniProt P06276)", "assay": "inhibitor, fluorometric", "endpoint": "IC50", "result": "6.95 ± 2.68 µM"}
